Experimental data pooled from the literature.
Numbered parts are unrelated; each lists some results of a single study.
Sequence of UniProt Q06418 (whole entry, looked up): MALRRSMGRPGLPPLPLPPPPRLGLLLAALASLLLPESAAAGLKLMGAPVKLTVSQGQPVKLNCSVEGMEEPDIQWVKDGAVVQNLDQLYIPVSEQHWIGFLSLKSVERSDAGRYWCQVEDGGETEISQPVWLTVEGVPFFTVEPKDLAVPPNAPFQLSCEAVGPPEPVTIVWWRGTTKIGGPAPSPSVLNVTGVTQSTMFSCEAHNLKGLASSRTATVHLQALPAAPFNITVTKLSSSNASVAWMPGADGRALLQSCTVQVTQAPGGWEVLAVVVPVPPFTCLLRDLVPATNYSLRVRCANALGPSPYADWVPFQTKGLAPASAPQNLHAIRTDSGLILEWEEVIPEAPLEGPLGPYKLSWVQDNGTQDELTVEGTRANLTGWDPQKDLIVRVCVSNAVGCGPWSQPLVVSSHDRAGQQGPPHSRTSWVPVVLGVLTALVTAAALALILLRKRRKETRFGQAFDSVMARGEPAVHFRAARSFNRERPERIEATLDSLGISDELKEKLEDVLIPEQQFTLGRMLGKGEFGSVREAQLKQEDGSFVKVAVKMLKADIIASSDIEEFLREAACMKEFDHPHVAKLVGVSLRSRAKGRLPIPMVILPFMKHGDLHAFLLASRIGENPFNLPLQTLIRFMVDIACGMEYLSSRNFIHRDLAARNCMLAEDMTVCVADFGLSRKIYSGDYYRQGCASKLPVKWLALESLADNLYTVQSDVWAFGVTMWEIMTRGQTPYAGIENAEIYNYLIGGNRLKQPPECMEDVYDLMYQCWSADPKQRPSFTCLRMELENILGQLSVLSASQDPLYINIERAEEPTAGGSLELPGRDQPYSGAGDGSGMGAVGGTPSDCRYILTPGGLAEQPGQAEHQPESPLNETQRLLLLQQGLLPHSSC
Sequence of UniProt P29317 (whole entry, looked up): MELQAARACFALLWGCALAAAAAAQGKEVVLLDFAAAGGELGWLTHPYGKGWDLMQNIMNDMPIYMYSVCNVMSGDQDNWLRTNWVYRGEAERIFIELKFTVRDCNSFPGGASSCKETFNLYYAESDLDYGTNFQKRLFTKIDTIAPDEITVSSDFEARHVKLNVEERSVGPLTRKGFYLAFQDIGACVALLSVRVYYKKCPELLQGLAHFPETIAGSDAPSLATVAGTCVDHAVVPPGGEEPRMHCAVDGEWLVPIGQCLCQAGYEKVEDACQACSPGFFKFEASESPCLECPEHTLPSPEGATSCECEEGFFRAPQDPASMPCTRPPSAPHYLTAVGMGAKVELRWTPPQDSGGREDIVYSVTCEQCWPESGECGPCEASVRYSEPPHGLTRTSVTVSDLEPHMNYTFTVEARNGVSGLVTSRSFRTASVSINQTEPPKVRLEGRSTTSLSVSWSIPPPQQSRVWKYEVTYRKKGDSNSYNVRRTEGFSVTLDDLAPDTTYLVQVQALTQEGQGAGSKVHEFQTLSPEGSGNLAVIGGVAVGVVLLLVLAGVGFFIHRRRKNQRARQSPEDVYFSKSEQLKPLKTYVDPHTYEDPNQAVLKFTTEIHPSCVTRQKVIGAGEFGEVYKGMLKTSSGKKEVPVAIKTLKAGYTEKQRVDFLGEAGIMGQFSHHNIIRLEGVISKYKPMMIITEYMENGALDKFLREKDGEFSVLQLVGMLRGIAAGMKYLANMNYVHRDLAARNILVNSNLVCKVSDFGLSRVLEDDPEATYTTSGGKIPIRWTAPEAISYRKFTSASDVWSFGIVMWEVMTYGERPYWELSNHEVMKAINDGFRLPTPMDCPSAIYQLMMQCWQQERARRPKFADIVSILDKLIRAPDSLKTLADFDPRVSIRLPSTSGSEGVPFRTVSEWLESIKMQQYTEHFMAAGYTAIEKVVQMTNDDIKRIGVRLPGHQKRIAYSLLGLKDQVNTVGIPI
Sequence of UniProt Q9UBS0 (whole entry, looked up): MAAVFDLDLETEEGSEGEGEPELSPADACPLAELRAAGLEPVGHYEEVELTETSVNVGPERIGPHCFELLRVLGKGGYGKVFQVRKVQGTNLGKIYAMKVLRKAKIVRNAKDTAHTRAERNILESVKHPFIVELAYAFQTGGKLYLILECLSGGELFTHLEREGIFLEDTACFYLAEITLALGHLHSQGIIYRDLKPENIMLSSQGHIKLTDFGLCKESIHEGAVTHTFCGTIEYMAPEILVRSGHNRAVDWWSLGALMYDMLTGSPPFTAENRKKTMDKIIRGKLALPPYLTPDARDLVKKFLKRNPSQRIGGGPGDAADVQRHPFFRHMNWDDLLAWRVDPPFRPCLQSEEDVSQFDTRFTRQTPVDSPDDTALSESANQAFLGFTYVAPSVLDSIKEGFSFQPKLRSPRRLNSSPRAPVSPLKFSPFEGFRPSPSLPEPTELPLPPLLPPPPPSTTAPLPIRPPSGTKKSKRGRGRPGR
Sequence of UniProt Q9Y616 (whole entry, looked up): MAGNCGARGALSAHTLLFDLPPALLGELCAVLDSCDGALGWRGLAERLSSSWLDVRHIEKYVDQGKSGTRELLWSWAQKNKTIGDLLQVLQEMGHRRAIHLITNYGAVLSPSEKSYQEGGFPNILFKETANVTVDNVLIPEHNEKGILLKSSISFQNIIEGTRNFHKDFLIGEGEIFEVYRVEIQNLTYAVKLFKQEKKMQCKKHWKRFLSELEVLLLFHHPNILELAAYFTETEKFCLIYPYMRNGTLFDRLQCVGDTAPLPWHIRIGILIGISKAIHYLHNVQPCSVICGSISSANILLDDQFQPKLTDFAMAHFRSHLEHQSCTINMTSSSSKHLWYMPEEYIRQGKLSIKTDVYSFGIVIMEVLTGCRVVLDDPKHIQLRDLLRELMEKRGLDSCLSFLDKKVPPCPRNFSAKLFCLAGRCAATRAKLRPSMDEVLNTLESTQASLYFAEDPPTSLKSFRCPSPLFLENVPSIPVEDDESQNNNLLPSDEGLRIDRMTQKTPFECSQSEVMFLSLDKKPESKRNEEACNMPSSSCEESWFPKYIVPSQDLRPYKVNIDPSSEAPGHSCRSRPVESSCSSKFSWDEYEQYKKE
Sequence of UniProt Q00535 (whole entry, looked up): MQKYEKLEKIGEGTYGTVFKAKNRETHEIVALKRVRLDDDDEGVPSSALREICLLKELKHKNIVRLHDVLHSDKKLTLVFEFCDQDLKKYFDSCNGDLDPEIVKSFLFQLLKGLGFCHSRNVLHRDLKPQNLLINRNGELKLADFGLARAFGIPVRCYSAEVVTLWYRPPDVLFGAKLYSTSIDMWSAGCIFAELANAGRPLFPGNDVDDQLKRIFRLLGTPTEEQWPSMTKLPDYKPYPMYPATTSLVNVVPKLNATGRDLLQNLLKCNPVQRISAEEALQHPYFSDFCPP
Sequence of UniProt Q96SB4 (whole entry, looked up): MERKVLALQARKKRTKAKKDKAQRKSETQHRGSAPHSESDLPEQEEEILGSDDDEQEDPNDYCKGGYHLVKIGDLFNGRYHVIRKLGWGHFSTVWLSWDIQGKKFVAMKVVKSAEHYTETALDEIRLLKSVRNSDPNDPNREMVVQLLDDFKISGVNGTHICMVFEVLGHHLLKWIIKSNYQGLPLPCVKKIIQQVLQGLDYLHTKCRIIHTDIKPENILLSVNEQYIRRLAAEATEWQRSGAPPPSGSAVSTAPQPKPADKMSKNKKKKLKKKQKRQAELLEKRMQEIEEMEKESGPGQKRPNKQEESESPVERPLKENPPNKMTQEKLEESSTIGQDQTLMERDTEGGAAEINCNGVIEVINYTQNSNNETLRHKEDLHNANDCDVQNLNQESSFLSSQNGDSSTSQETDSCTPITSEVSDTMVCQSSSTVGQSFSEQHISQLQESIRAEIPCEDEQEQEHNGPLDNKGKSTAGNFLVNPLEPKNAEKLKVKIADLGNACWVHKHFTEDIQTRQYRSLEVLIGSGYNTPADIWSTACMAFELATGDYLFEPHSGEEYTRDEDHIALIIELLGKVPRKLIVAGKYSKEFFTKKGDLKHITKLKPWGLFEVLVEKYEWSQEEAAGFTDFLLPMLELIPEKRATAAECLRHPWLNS
Sequence of UniProt Q8N5S9 (whole entry, looked up): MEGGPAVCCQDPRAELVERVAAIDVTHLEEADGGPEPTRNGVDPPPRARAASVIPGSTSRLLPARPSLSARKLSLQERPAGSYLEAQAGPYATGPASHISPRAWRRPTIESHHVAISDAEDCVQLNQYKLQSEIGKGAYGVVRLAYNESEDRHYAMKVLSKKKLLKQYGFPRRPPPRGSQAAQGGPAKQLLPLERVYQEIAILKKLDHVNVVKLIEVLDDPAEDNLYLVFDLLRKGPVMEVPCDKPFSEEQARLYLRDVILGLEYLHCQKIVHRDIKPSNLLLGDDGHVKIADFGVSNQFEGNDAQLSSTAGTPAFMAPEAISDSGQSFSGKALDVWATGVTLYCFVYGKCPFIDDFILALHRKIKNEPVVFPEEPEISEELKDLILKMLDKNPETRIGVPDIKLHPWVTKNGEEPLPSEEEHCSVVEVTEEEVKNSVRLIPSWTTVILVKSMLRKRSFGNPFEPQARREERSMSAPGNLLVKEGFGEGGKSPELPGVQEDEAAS
Sequence of UniProt P49760 (whole entry, looked up): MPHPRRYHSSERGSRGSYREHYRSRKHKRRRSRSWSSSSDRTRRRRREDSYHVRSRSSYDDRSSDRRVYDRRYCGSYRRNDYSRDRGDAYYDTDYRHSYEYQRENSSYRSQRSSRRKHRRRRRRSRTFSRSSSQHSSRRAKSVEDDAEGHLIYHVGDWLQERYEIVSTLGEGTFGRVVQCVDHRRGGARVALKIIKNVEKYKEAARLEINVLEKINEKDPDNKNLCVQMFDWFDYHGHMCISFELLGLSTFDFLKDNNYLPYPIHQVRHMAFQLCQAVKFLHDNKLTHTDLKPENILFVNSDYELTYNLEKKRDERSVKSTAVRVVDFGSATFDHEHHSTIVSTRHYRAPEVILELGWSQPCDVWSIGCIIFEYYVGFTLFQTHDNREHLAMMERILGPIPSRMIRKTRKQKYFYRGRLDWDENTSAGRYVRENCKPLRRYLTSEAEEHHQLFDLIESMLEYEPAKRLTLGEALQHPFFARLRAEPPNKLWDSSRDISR

Study 1
Compound: O=C1NC(c2ccccn2)Sc2ccccc21 (centres unmarked)
Technique: competition with immobilised ligand
Concentration: 1 µM
target | effect on | remaining binding
Myosin-IIIb (MYO3B, Homo sapiens, UniProt Q8WXR4) | binding | 96%
CDK15 (Homo sapiens, UniProt Q96Q40) | cell-free assay | 63%
GAK (Homo sapiens, UniProt O14976) | cell-free assay | 100%
PIK3C3 (Homo sapiens, UniProt Q8NEB9) | cell-free assay | 99%
INSRR (Homo sapiens, UniProt P14616) | cell-free assay | 75%
IRAK3 (Homo sapiens, UniProt Q9Y616) | cell-free assay | 87%
EGFR (Homo sapiens, UniProt P00533, L858R/T790M) | cell-free assay | 100%
CAMKK2 (Homo sapiens, UniProt Q96RR4) | cell-free assay | 95%
BLK (Homo sapiens, UniProt P51451) | cell-free assay | 77%
PIP4K2B (Homo sapiens, UniProt P78356) | cell-free assay | 100%
EGFR (Homo sapiens, UniProt P00533, del747-752/P753S) | cell-free assay | 100%

Study 2
Compound: CC(=O)O/N=C1/C(c2c(O)[nH]c3cc(Br)ccc23)=Nc2ccccc21
Effect on: enzyme activity
Mode: inhibitor
Concentration: 0.5 µM
Relative to: control
target | remaining activity [%]
BRSK2 (Homo sapiens, UniProt Q8IWQ3) | 43.4
Cyclin-dependent kinase 2, with cyclin E (CDK2, Homo sapiens, UniProt P24941) | 24.7
Cyclin-dependent kinase 5, with p35 (CDK5, Homo sapiens, UniProt Q00535) | 24.7
EPHA2 (Homo sapiens, UniProt P29317) | 95.8
TYRO3 (Homo sapiens, UniProt Q06418) | 69.8
PAK6 (Homo sapiens, UniProt Q9NQU5) | 74.8
SRPK1 (Homo sapiens, UniProt Q96SB4) | 96.7
CLK1 (Homo sapiens, UniProt P49759) | 83.3
RPS6KB2 (Homo sapiens, UniProt Q9UBS0) | 83.7
CAMKK1 (Homo sapiens, UniProt Q8N5S9) | 72.7
MARK1 (Homo sapiens, UniProt Q9P0L2) | 76
CLK2 (Homo sapiens, UniProt P49760) | 96.8
PAK1 (Homo sapiens, UniProt Q13153) | 93.6

Single results of other studies
Molecule | target or system | technique | matrix | with | quantity | value
SNRNP70 (Homo sapiens, UniProt P08621) | SRSF1 (Homo sapiens, UniProt Q07955) | cross-linking MS | cell fractions | DSSO | cross-linked residues | K162 to K179
CCOC(=O)[C@@H]1CSCC(=O)N[C@@H](CC)C(=O)N(C)[C@@H](C)C(=O)N[C@@H](CC(C)C)C(=O)N2CCC[C@H]2C(=O)N(CC(C)C)CC(=O)N[C@@H](CC(C)C)C(=O)N(C)[C@H](C)C(=O)N[C@@H](CC(C)C)C(=O)N1C |  |  | hydrocarbon/water |  | logD | 0.585

Some of these lines once more (study 2):
target | remaining activity [%]
MARK1 (Homo sapiens, UniProt Q9P0L2) | 76
CLK1 (Homo sapiens, UniProt P49759) | 83.3
CAMKK1 (Homo sapiens, UniProt Q8N5S9) | 72.7
PAK6 (Homo sapiens, UniProt Q9NQU5) | 74.8
